Measured values from different studies.
Numbered parts are unrelated; each lists some results of a single study. Substitutions count along the parent as printed.

Set 1
Target: CCND1, cyclin fold, Cln2 fusion (human)
Method: yeast growth competition, sequencing
Medium: yeast
Notes: strong parent motif
Reference: not given
Reading: higher = stronger binding
Parent: INSM1 docking peptide (human); PKAIRKLHFEDEV; partner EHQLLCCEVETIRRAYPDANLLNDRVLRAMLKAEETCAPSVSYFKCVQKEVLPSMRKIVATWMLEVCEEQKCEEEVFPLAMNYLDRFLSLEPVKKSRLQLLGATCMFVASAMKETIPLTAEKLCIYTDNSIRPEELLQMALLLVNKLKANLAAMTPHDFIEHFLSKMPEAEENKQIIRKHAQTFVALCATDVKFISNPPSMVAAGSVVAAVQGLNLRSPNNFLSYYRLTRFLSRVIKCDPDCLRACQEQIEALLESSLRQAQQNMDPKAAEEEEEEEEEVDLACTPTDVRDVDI
| Variant | normalised enrichment score |
| --- | --- |
| PKAIMKLHFEDEV [R5M] | 1.82 |
| PKGIRKLHFEDEV [A3G] | 1.81 |
| PKAIRKLGFEDEV [H8G] | 2.98 |
| PKAIRKLNFEDEV [H8N] | 5.61 |
| PKAIRKLDFEDEV [H8D] | 5.39 |
| PKANRKLHFEDEV [I4N] | 2.12 |
| PKAIDKLHFEDEV [R5D] | 0.27 |
| PKAIRKLQFEDEV [H8Q] | 5.36 |
| PKAIRKLHFPDEV [E10P] | 5.28 |
| PKAIGKLHFEDEV [R5G] | 0.186 |
| PIAIRKLHFEDEV [K2I] | 2.83 |
| PKIIRKLHFEDEV [A3I] | 1.05 |
| PKAIRKDHFEDEV [L7D] | -0.179 |
| PKAIRKLHFEEEV [D11E] | 4.5 |
| PKALRKLHFEDEV [I4L] | 1.04 |
| PKAIRKLHFTDEV [E10T] | 3.5 |
| PKAIRKLHFEREV [D11R] | 1.83 |
| PKTIRKLHFEDEV [A3T] | 2.11 |
| PKAIRKLHFIDEV [E10I] | 1.36 |
| PKAIRKLHWEDEV [F9W] | 1.39 |
| PKAIRKLHFQDEV [E10Q] | 2.89 |
| PKAIRKLHFYDEV [E10Y] | 2.55 |
| PKAYRKLHFEDEV [I4Y] | 1.02 |
| PKAIRKLHFEDPV [E12P] | 4.07 |
| PKPIRKLHFEDEV [A3P] | 2.59 |

Set 2
Target: Centromere-binding protein 1, full length, N-terminal tag (CBF1, Saccharomyces cerevisiae, UniProt P17106, residues 1-351)
Chain of UniProt P17106 (whole entry, looked up): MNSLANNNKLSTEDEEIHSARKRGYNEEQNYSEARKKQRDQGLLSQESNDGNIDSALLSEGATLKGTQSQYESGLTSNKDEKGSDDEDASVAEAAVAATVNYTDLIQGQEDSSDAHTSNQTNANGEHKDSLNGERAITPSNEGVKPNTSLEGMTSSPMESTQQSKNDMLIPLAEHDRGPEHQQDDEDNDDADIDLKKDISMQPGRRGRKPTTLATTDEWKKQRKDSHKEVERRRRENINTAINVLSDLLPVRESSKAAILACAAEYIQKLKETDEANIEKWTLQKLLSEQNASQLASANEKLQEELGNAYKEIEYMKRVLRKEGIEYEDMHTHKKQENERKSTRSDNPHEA
Method: protein-binding microarray
Form: double-stranded DNA, one strand shown
Medium: in vitro
Tested at: 0.8 µM
Notes: whole 60-bp probe, no competitor
Reading: higher = stronger binding
Constant ends, left off below: … GTCTTGATTCGCTTGACGCTGCTG
| Oligonucleotide | fluorescence intensity [a.u.] |
| --- | --- |
| GAAAGGGCTCTGAGTCTCGTGGTAGTGGAATCCTAG | 655 |
| GAAAAGGTCCAACATTCTCACATGAGGAATACATAG | 523 |
| GAATTCCATGTGTCTCGTGATACCTTAATTTCATAG | 3190 |
| CTAGCGTCTTGATACCACGTCTTCCAGTTATGGTTC | 542 |
| CTAACACTAATCATTCTGATGATGAACTCCCTGTTC | 501 |
| CTAGACCGCTCGTGGAAGGTGACGATAATACGATTC | 555 |
| TGTACGAAGCTATACCACACCATTATAGTAGTTAGG | 525 |
| CTACGCTGTTTTCCGCACGAGGTTTCTCCGGACTTC | 691 |
| CTACCAAGACTGGATCACCTTTACATAGCACTTTTC | 508 |
| CTAAATACTGAAGTGCAGCTGACGATCCAGTCATTC | 557 |
| GAATGGAGCTTTCGTCACCTTTTTTTGGCTTGTTAG | 507 |
| GAATAAAAAACCAAATAGCTGATGTATGTATATTAG | 493 |
| GAAATGGTAATGATTCACGTGATCTAGAAACTTTAG | 19800 |
| GAAGGCTGATGACTCCTCATGATAACTCATGTGTAG | 531 |
| CTACCTTCTAAAGGTGACCCGCCTGATATGCGATTC | 540 |
| CTATTCACACAAGATGCCATCAGCGCTACTGTATTC | 510 |
| GAATCGCTATATTGTCACACGCATTTGAATTAGTAG | 687 |
| GAATGTAGATGTCGCCGCGTGATTTTATCGTTGTAG | 863 |

Set 3
Target: Histone acetyltransferase KAT6A, winged helix 1, GST fusion (KAT6A, Homo sapiens, UniProt Q92794, residues 1-85)
Method: protein binding microarray
Form: double-stranded DNA, one strand shown
Medium: in vitro
Tested at: not given
Notes: 8-mer, flanks averaged, mean of 2 arrays, mostly near background
Reference: not given
Reading: higher = stronger binding
Residues (chain): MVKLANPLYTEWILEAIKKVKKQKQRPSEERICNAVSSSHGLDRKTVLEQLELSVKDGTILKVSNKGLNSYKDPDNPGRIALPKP
| Oligonucleotide | E-score |
| --- | --- |
| ACTAGCCA | -0.201 |
| GGAGACGA | -0.07 |
| CCGACGGC | 0.482 |
| TTATAAAA | 0.0397 |
| CCGTTGTC | 0.0961 |
| AGACGCGG | 0.352 |
| ACAAGGGG | -0.104 |
| ATCCACCC | 0.0561 |
| ACGCCGCG | 0.409 |
| ATAGTAAT | -0.0958 |
| CCGATCAG | 0.149 |
| CATGCATG | -0.0808 |
| CTCTAGCA | -0.352 |
| GGAGGTAC | 0.00507 |
| CTTAGAAC | -0.175 |
| CCGAGCGG | 0.362 |
| CCACATCA | -0.16 |
| AGCCTCCT | -0.0933 |
| GCGACTAC | 0.123 |
| CCTAAGCA | -0.222 |
| GCTCAGAA | -0.00447 |
| AGAGCGCA | 0.211 |
| AACTCGTC | -0.209 |
| AACGGAAT | 0.16 |
| AGTGGCAT | -0.201 |

Set 4
Target: RNA binding protein fox-1 homolog 2, RRM domain, GST-SBP tag (RBFOX2, Homo sapiens, UniProt O43251-10, residues 100-194)
Method: RNA Bind-n-Seq
Form: RNA
Medium: in vitro
Tested at: 365 nM
Notes: natural RNA segment, single round, ends assumed
Reference: no-protein control
Reading: higher = stronger binding
Constant ends, left off below: GGGAGUUCUACAGUCCGACGAUC … UGGAAUUCUCGGGUGCCAA
Residues (chain): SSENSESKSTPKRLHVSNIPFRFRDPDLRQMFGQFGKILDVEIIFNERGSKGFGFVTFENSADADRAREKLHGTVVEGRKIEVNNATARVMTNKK
| Oligonucleotide | RBNS enrichment (R) |
| --- | --- |
| UCCGCUCUCUAACUACAUAAACAUUUAUCUGUAUCUCUCUGUCCCGGGCUGGGGGCAGGAGGAAUCUGCCAAAGACCGACAGUCUUCCUUUACUGCACUUCACAAGGUUC | 1.57 |
| AGCUUGUGUGUUCUUUUGUUAAUGUGUAGAGUUCUCCUUUCUCGAAAUUGCCAGUGUGUACUUGGCUUAACUCAAGAACAGUUUCUUCUGGAUUCCUUAUUUGAUUUAUU | 0.864 |
| UGAAGUGUUUUUAAAAAUUAAAGAAGAAGAAAAGUAAAAGAGCUUACCACUGGCGCCUAUGCGAUCACUUCAUUUUUAGUUUGAGUUGCACCAGAAGCUGCCGUAGAAAG | 0.299 |
| CAGCCCUCUAAGGGUUUUCUCCUCCGGCAAUGGAUAAGGAGCCCAGCUAUGAAAGCUUUGCUUACUGGGAUGGAUGGGGGCAGACAAGAGGACAGUAGGGAAUCUGCCGA | 0.316 |
| UCUUGGUAUUAAAACACUUCUGUCCUGUGAGGUUUUCCCAAUGGUGUUUUUCUUGUAAAUGUGUUGGACAAAUGUGAAGAUGCGUUGUAGUUUACCCAUAUGCCCACAUU | 0.512 |
| CCCGCCCAUUGCUUUGGAGCACAGAUGACUCUGGGGGCAGAGGUGGGCUCUGUUUAGGAGGGCAGUGAGACCACCCAGCCAAAUUGCUUCUCAACCCUAGACAAAGCCUU | 0.594 |
| ACCUUCCCCUUGGCGAUCGCUCGGGUUUGUGUUAAGUUAAUCUGUAUGUCCUGUCUGCCAGCGUUCCCUGUACUAUAGGCCUGUGUAUAGUGUAGGGCAGAGCGUUGACC | 1.22 |
| CCUGGGUGAUGCAUUUGCUCUUCCUGUUUGUGCCAAUGUAUCAAUGUAGAGUUGCUCUGUUUUCUUCAACUGUAUUUAUUGCUGCAUUUCUCAGCAUAAACUUAUCCCAU | 0.688 |
